Published values gathered from unrelated publications.

For CC(=O)N[C@@H](Cc1ccc(O)cc1)C(=O)N[C@@H](CC(C)C)C(=O)N[C@@H](CS)C(=O)N[C@@H](CO)C(=O)N[C@@H](CO)C(=O)N[C@@H](CC(N)=O)C(=O)N[C@@H](CC(N)=O)C(=O)N[C@@]1(C)CCCC=CCCC[C@@](C)(C(=O)N[C@@H](CCCCN)C(=O)N[C@@H](Cc2ccccc2)C(=O)N[C@@H](CCCNC(=N)N)C(=O)N[C@@H](CCCNC(=N)N)C(=O)NCC(=O)NCC(=O)N[C@@H](CO)C(=O)NCC(=O)NCC(=O)N[C@H](C(=O)N[C@@H](CO)C(=O)N[C@@H](Cc2ccccc2)C(=O)N[C@@]2(C)CCCC=CCCC[C@@](C)(C(=O)N[C@@H](Cc3c[nH]c4ccccc34)C(=O)N[C@@H](CC(C)C)C(=O)N[C@@H](Cc3c[nH]c4ccccc34)C(=O)N3CCC[C@H]3C(N)=O)NC(=O)[C@H](Cc3c[nH]c4ccccc34)NC(=O)[C@H](Cc3ccccc3)NC(=O)[C@H](CCC(N)=O)NC2=O)[C@@H](C)O)NC(=O)[C@H](CCCNC(=N)N)NC(=O)[C@H](CCC(=O)O)NC(=O)[C@H](CCCNC(=N)N)NC1=O, the half-life was 13.9 h (male C57BL/6 mouse, plasma; intraperitoneal, single dose).
For CCCCCCCC(=O)NC[C@H](NC(=O)[C@H](CO)NC(=O)CN)C(=O)N[C@@H](Cc1ccccc1)C(=O)N[C@@H](CC(C)C)C(=O)N[C@@H](CO)C(=O)N1CCC[C@H]1C(=O)N[C@@H](CCC(=O)O)C(=O)N[C@@H](Cc1c[nH]cn1)C(=O)N[C@@H](CCC(N)=O)C(=O)N[C@@H](CCCNC(=N)N)C(=O)N[C@H](C(=O)N[C@@H](CCC(N)=O)C(=O)N[C@H](C(=O)N[C@@H](CCCNC(=N)N)C(=O)N1CCC[C@H]1C(=O)N1CCC[C@H]1C(=O)N[C@@H](Cc1c[nH]cn1)C(=O)N[C@@H](CCCCN)C(=O)N[C@@H](C)C(=O)N1CCC[C@H]1C(=O)N[C@@H](Cc1c[nH]cn1)C(=O)N[C@H](C(=O)N[C@H](C(=O)O)C(C)C)C(C)C)C(C)C)C(C)C, the half-life was 0.21 h (mouse, plasma; subcutaneous, 7.2 mg/kg).
O=C(CN1CCN(c2cc3c(cc2F)c(=O)c(C(=O)O)cn3C2CC2)CC1)Nc1ccc(Cl)cc1 has a half-life of 6.51 h (mouse, plasma; intravenous, 3.75 mg/kg).
With CN(C)CCN(Cc1ccccc1)C(=O)c1cc(-c2ccc(F)cc2)n2nc(C(C)(C)C)cc2n1 the half-life was about 3.7 h (C57BL/6 mouse, plasma; subcutaneous, 35 mg/kg, single dose).
With COc1ccc(F)cc1S(=O)(=O)Nc1cnc2c(c1)C(=O)NCCO2 the half-life was 1.2 h (male C57BL/6 mouse, plasma; oral, 0.3 mg/kg, single dose).
The half-life of CC(C)[C@H]1NC(=O)C[C@H]2/C=C/CCSSC[C@@H](NC1=O)C(=O)N[C@H](Cc1cccc3ccccc13)C(=O)NCC(=O)O2 is reported as 1 h (nude mouse, blood; intraperitoneal, 4 mg/kg).
C[C@@](O)(C(F)F)[C@H](NC(=O)c1ccc(C#CC#CC2CC2)cc1)C(=O)NO has a half-life of 1 h (mouse, plasma; intravenous, 40 mg/kg).
With O=c1cc(-c2ccccc2)oc2c(Br)c(O)c(O)c(O)c12 the half-life was 4.6 h (C57BL/6 mouse, plasma; oral, 50 mg/kg, single dose).
The half-life of CCCCCCCC(=O)NCCCC[C@H](NC(=O)[C@H](Cc1ccccc1)NC(=O)[C@@H](CCCNC(=N)N)NC(=O)[C@@H](N)Cc1ccc(O)cc1)C(N)=O is reported as 1.26 h (male CD-1 mouse, plasma; intravenous, 3 mg/kg).

Excerpt of the above:
C[C@@](O)(C(F)F)[C@H](NC(=O)c1ccc(C#CC#CC2CC2)cc1)C(=O)NO has a half-life of 1 h (mouse, plasma; intravenous, 40 mg/kg).
